Measured values of several laboratories.
Compare with care: the assays were run in different laboratories. ± marks the error that the study gave.
CXCR4: C-X-C chemokine receptor type 4 (CXCR4, Homo sapiens, UniProt P61073)
Chain of UniProt P20815 (whole entry, looked up): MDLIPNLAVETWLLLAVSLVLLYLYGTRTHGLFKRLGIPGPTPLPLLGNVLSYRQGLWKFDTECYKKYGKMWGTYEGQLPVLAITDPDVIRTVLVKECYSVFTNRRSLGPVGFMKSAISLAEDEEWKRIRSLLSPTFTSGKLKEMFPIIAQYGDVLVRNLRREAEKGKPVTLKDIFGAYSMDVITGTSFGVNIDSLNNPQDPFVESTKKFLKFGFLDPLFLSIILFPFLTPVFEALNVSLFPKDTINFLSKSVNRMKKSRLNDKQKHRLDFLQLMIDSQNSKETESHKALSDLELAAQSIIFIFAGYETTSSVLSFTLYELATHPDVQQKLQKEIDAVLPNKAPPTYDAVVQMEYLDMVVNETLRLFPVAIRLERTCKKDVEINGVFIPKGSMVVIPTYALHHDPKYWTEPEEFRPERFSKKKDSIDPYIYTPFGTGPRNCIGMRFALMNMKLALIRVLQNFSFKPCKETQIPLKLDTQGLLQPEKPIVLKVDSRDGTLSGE
Chain of UniProt P11712 (whole entry, looked up): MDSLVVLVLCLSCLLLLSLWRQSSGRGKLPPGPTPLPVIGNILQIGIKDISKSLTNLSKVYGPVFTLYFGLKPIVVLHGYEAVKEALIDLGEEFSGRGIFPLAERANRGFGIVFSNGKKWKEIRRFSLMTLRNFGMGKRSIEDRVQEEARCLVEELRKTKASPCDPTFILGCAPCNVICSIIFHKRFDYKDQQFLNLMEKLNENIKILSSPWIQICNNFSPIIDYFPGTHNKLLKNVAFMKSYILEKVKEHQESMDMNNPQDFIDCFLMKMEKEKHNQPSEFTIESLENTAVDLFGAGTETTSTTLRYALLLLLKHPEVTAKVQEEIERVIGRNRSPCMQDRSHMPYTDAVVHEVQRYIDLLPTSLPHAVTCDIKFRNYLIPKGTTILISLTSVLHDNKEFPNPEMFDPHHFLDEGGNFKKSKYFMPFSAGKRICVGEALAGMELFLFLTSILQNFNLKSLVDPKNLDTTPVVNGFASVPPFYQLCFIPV

CC(=O)N[C@H](C(=O)N[C@H](C(=O)N[C@@H](CCCNC(=N)N)C(=O)N1Cc2ccccc2C[C@H]1C(=O)N[C@@H](Cc1ccccc1)C(N)=O)C1CCCCC1)C(C)C
cytokine level (human PBMC; Bio-Plex multiplex, measured: GM-CSF; 250 µg/mL, 24 h): < 6.9 pg/mL

NCC(=O)N1CCC[C@H]1C(=O)N1C[C@H](O)C[C@H]1C(=O)O
−ΔG (iron(III) ion; complex formation, from log β; aqueous 0.15 M NaCl; 25 °C, MAH−3 complex species): -3.04 kcal/mol

[2H]c1c(NS(C)(=O)=O)c([2H])c2c(C(=O)c3ccc(OCCCN(CCCC)CCCC)cc3)c(CCCC)oc2c1[2H]
half-life (Cytochrome P450 3A5 (CYP3A5, Homo sapiens, UniProt P20815); metabolic stability; recombinant enzyme; 1 µM, enzyme 10 pmol/mL): 17.8 min

[64Cu+2].c1ccc(CNCc2ccc(CN3CCCN4CCNCCCN(CC4)CC3)cc2)nc1
tissue uptake (CXCR4; NOD/SCID mice, U87 xenografts, U87-stb-CXCR4 tumour; 480 min post-injection): 14.1 ± 7.98 %ID/g

N=C(N)NCCC[C@@H]1NC(=O)[C@H](Cc2c[nH]c3ccccc23)NC(=O)[C@@H](CC2CCCCC2)NC(=O)[C@@H]2CCCN2C(=O)[C@@H](NC(=O)CCc2ccccc2)CCCNC1=O
elimination rate constant (C57BL/6J mice, spinal cord; intravenous, 1 mg/kg, two-compartment model): 0.000406 s⁻¹

O=C(O)CCC(NP(=O)(O)OCCC[C@@H](NC(=O)CC[C@H](NC(=O)CCCCCNC(=O)c1ccc([18F])cc1)C(=O)O)C(=O)O)C(=O)O (stereo partly shown)
tracer uptake (CWR22Rv1 tumour model; host not given, blood; 1 h, tumour-bearing): 0.104 %ID/g

[64Cu+2].c1cnc(CNCc2ccc(CN3CCCN4CCNCCCN(CC4)CC3)cc2)nc1
tissue uptake (CXCR4; NOD/SCID mice, U87 xenografts, U87-stb-CXCR4 tumour; 450 min post-injection): 22.5 ± 4.09 %ID/g

N#C[C@@H]1CCCN1C(=O)CNC(=O)c1ccnc2ccc(OCCCN3CCN(C(=O)CCc4ccc(O)c(CN5CCN6CC(=O)[O][Al-]([18F])([O]C(=O)C5)[O]c5ccc(CCC(=O)N7CCN(CCCOc8ccc9nccc(C(=O)NCC(=O)N%10CCC[C@H]%10C#N)c9c8)CC7)cc5C6)c4)CC3)cc12 (stereo partly shown)
tracer uptake (U-87 MG tumour model; host not given, tumour; 1 h, tumour-bearing): 41.2 %ID/g

Cn1c(=O)oc2ccc(-c3ccc(CC(C#N)NC(=O)C4CNCCCO4)c(F)c3)cc21 (stereo not shown)
skin exfoliation incidence (human; oral, 10 mg once daily, treatment-related AE, multiple ascending dose): 0%

CCc1cccc2c(C(=O)COC(=O)C34CC5CC(CC(Br)(C5)C3)C4)c[nH]c12
shoot dry weight (Oryza sativa; Nipponbare; concentration not given, 40 days, 40-day-old plants): no effect

COc1ccc2c(c1)c(CC(=O)[O-])c(C)n2C(=O)c1ccc(Cl)cc1.COc1ccc2c(c1)c(CC(=O)[O-])c(C)n2C(=O)c1ccc(Cl)cc1.[Co+2].c1c[nH]cn1.c1c[nH]cn1
cathodic peak potential (calf thymus DNA; cyclic voltammetry; DMSO/buffer; Co(II)/Co(I) couple, with DNA): -707 mV

C=CC(=O)Nc1cc(Nc2nccc(-c3cn(C)c4ccccc34)n2)c(OCC(F)(F)F)nc1N(C)CCN(C)C
remaining activity (Cytochrome P450 2C9 (CYP2C9, Homo sapiens, UniProt P11712); enzyme activity, inhibitor, measured: tolbutamide 4′-hydroxylation; pooled human liver microsomes; 3.33 µM): 104%

O=C([O-])CN1CCN(CC(=O)[O-])CCN(CC(=O)NCCc2ccc3c(c2)C2C=CCC2C(c2cc4c(cc2Br)OCO4)N3)CCN(CC(=O)[O-])CC1.[111In+3] (stereo not shown)
tracer uptake (Hec50 tumour model; host not given, blood; 4 h, tumour-bearing): 0.23 %ID/g
